Experimental data gathered from unrelated publications.
Parts stem from different laboratories: compare values within a part only.
Chain of UniProt P62344 (whole entry, looked up): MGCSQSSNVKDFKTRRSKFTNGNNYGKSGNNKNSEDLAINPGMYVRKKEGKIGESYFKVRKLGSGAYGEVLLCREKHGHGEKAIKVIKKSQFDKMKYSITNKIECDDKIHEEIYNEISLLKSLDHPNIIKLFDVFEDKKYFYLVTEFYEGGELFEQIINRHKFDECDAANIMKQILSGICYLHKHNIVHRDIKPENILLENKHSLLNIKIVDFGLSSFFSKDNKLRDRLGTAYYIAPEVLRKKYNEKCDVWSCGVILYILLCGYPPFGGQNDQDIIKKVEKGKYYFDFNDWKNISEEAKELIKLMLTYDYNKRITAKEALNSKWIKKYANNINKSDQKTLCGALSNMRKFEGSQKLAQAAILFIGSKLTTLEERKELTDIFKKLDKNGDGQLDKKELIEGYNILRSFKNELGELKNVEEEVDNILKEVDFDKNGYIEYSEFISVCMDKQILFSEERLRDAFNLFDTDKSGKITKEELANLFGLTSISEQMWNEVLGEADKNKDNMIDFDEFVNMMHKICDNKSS
Chain of UniProt P9WI81 (whole entry, looked up): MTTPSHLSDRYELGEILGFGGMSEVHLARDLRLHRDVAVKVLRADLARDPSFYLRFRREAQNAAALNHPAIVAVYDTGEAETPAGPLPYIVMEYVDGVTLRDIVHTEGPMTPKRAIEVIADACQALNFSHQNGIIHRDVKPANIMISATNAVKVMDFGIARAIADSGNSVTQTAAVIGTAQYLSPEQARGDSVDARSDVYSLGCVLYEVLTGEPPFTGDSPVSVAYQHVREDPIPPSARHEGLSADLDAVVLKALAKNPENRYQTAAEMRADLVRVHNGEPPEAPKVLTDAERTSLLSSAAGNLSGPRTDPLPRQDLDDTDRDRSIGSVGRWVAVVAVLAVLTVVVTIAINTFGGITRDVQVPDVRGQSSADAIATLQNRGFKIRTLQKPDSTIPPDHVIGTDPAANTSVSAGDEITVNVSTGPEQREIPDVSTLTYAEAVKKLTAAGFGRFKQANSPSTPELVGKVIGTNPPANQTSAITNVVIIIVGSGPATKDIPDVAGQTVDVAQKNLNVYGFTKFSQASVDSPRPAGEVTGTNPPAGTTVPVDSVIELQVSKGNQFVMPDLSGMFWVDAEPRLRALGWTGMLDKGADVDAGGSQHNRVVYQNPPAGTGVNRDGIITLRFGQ
Chain of UniProt Q96SW2 (whole entry, looked up): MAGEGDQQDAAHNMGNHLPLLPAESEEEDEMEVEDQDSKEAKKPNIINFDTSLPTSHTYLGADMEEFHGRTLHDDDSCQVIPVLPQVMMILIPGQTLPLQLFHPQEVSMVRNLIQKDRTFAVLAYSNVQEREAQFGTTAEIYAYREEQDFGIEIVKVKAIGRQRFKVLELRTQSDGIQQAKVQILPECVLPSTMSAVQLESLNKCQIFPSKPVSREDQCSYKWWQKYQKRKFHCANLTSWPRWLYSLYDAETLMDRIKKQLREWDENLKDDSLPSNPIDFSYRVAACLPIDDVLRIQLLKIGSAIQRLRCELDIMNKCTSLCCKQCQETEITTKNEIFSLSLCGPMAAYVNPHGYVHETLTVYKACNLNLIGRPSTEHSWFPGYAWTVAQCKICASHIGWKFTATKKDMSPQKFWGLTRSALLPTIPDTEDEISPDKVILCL
Chain of UniProt Q9UKS7 (whole entry, looked up): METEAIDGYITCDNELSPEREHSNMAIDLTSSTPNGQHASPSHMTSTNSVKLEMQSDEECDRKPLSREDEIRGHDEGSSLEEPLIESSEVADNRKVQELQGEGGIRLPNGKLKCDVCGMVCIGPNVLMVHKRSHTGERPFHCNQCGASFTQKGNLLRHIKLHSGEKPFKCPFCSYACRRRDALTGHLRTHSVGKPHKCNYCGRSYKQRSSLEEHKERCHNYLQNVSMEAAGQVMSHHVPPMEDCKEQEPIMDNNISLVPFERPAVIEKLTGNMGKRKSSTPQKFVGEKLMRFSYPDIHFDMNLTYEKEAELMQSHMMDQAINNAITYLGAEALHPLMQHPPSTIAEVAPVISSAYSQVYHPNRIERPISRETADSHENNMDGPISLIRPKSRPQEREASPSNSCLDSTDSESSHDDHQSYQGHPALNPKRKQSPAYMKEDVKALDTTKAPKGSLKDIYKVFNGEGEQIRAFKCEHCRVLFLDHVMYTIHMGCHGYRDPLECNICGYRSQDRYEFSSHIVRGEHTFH

Sample 1
Target: Calcium/calmodulin-dependent protein kinase type II subunit alpha (CAMK2A, Homo sapiens, UniProt Q9UQM7)
Chain of UniProt Q9UQM7 (whole entry, looked up): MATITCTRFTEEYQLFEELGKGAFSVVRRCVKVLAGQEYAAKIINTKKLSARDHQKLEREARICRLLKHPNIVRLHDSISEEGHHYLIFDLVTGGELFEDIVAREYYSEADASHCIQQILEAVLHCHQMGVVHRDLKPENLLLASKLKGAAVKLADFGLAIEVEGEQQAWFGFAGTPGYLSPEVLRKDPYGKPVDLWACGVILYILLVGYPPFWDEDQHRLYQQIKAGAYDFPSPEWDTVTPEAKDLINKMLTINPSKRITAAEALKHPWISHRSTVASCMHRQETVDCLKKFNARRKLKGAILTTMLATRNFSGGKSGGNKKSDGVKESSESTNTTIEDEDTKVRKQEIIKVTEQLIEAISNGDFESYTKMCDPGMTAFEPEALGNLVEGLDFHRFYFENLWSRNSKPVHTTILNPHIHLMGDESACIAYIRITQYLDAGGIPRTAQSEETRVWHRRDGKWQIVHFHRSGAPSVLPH
Read-out: enzyme activity
Action: inhibitor
Concentration: 10 µM
The inhibition of `CN(CC(=O)O)C(=N)NP(=O)(O)O` is reported as -11%.
For `CCc1ccc(O)c2cc3c(nc12)-c1cc2c(c(=O)n1C3)COC(=O)[C@]2(O)CC`, the inhibition was 32%.
For `CC1=C2C[C@H]3[C@@H](CC(=O)[C@H]4C[C@@H](O)CC[C@@]43C)[C@@H]2CC[C@]12O[C@@H]1C[C@H](C)CN[C@H]1[C@H]2C`, the inhibition was 7%.
`CC(C)[C@H]1OC(=O)[C@H](Cc2ccccc2)N(C)C(=O)[C@@H](C(C)C)OC(=O)[C@H](Cc2ccccc2)N(C)C(=O)[C@@H](C(C)C)OC(=O)[C@H](Cc2ccccc2)N(C)C1=O` has an inhibition of 38%.

Sample 2
Cell line: HEK-293T/ACE2
Concentration: 10 µM
Time: 16 h
Reference: vehicle
The viability of `NS(=O)(=O)c1cc2c(cc1Cl)N=C(CSCc1ccccc1)NS2(=O)=O` is reported as 105%.
For `CC(C)(C)C(=O)OCOP(=O)(COCCn1cnc2c(N)ncnc21)OCOC(=O)C(C)(C)C`, the viability was 73.7%.
`CC[C@H](C)C(=O)O[C@H]1C[C@H](O)C=C2C=C[C@H](C)[C@H](CC[C@@H](O)C[C@@H](O)CC(=O)O)[C@H]21` has a viability of 97.4%.
The viability of `CN1C(C(=O)Nc2ccccn2)=C(O)c2ccccc2S1(=O)=O` is reported as 97.3%.
`Oc1ncnc2[nH]ncc12` has a viability of 102%.
The viability of `Cc1nc(Nc2ncc(C(=O)Nc3c(C)cccc3Cl)s2)cc(N2CCN(CCO)CC2)n1` is reported as 104%.
With `Nc1ccn([C@@H]2CS[C@H](CO)O2)c(=O)n1` the viability was 103%.
For `C[C@H](CCC(=O)O)[C@H]1CC[C@H]2[C@@H]3[C@@H](O)C[C@@H]4C[C@H](O)CC[C@]4(C)[C@H]3CC[C@]12C`, the viability was 103%.
The viability of `C[N+]1(C)CCCC(OC(=O)C(O)(c2ccccc2)c2ccccc2)C1` (centres unmarked) is reported as 102%.
`CO/N=C(\C(=O)N[C@@H]1C(=O)N2C(C(=O)O)=C(C[N+]3(C)CCCC3)CS[C@H]12)c1csc(N)n1` has a viability of 98.8%.
`CCOC(=O)C1=C(COCCN)NC(C)=C(C(=O)OC)C1c1ccccc1Cl` (centres unmarked) gave a viability of 96.5%.
`NC[C@H]1O[C@H](O[C@H]2[C@H](O)[C@@H](O[C@H]3O[C@H](CO)[C@@H](O)[C@H](N)[C@H]3O)[C@H](N)C[C@@H]2N)[C@H](O)[C@@H](O)[C@@H]1O` has a viability of 102%.
The viability of `O=C(O)CCCc1ccccc1` is reported as 100%.
`O=C(O)CCCCCCCC(=O)O` has a viability of 101%.
With `Cc1c(OCC(F)(F)F)ccnc1C[S+]([O-])c1nc2ccccc2[nH]1` (centres unmarked) the viability was 98%.
`Nc1ccc(S(=O)(=O)Nc2nccs2)cc1` gave a viability of 105%.

Sample 3
Target: UBE2W UBC core domain (UniProt Q96B02)
Method: yeast two-hybrid
Matrix: yeast
Notes: mostly zero background
Reference: not given
Direction: higher = stronger interaction
B1: TRIM72 RING domain (UniProt Q6ZMU5); chain APGLLHQELSCPLCLQLFDAPVTAECGHSFCRACLGRVAGEPAADGTVLCPCCQAPTRPQALST
B2: TRIM8 RING domain (UniProt Q9BZR9); chain WKNCFEEELICPICLHVFVEPVQLPCKHNFCRGCIGEAWAKDSGLVRCPECNQAYNQKPGLE
B3: ZNF598 RING domain (UniProt Q86UK7); chain AAAPERGGGSCVLCCGDLEATALGRCDHPVCYRCSTKMRVLCEQRYCAVCREELRQVVFGK
B4: TRIM69 RING domain (UniProt Q86WT6); chain VIQDITMELHCPLCNDWFRDPLMLSCGHNFCEACIQDFWRLQAKETFCPECKMLCQYNNCTF
B5: IRF2BPL RING domain (UniProt Q9H1B7); chain SPMANSGPLCCTICHERLEDTHFVQCPSVPSHKFCFPCSRESIKAQGATGEVYCPSGEKCPLVGSNVP
Residues (chain): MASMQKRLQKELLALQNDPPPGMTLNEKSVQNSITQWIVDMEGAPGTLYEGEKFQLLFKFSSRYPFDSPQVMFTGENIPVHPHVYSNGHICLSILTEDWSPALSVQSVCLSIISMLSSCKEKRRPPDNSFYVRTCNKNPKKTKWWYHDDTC
`B1 (TRIM72 RING domain)`: “lacZ reporter activity” 0.
Under “lacZ reporter activity”, `B2 (TRIM8 RING domain)` is recorded as 0.
`RLTMMWEEVTCPICLDPFVEPVSIECGHSFCQECISQVGKGGGSVCPVCRQRFLLKNLRP (TRIM21 RING domain (UniProt P19474))` — result for “lacZ reporter activity”: 0.
`B3 (ZNF598 RING domain)`: “lacZ reporter activity” 0.
`B4 (TRIM69 RING domain)` — result for “lacZ reporter activity”: 0.
Under “lacZ reporter activity”, `KTLSRFGIQPCSICLGDAKDPVCLPCDHVHCLRCLRAWFASEQMICPYCLTALPDEFSPA (RNF213 RING domain (UniProt Q63HN8))` is recorded as 0.
`B5 (IRF2BPL RING domain)` — result for “lacZ reporter activity”: 0.
For `QLQDIKEQTMCPVCLDRLKNMIFLCGHGTCQLCGDRMSECPICRKAIERRILLY (MIB1 RING domain (UniProt Q86YT6))`, “lacZ reporter activity” read 8280.

Further values, each from its own experiment
`CN(C(=O)c1ccccc1)c1cc(N(C)c2ccc3c(c2)CCc2ccc(C(=O)NCCN4CCOCC4)cc2C3=O)ccc1F` has a remaining binding of 100% (CDPK1 (Plasmodium falciparum, UniProt P62344); cell-free assay, competition with immobilised ligand; 1 µM).
For `COc1cc(=O)n(-c2ccccc2)cc1C(=O)N1CCC2(CC1)OCCO2`, the remaining compound was 77.8% (mouse, microsomes or S9; 2 µM, 0.5 h).
The protein remaining of `O=C1CCC(N2Cc3c(ccc4c3OCC43CCN(Cc4ccsc4)CC3)C2=O)C(=O)N1` (centres unmarked) is reported as 100% (CRBN/Zinc finger protein Helios (Homo sapiens, UniProt Q96SW2+Q9UKS7); degrader, HiBiT; HEK293; 0.1694 nM).
`FC(F)(F)c1ccc2c(c1)nc(-c1cccnc1)n2C1CC1` has a remaining binding of 100% (pknB (Mycobacterium tuberculosis, UniProt P9WI81); cell-free assay, competition with immobilised ligand; 1 µM).

Excerpt of the above (sample 2):
For `CC(C)(C)C(=O)OCOP(=O)(COCCn1cnc2c(N)ncnc21)OCOC(=O)C(C)(C)C`, the viability was 73.7%.
`CCOC(=O)C1=C(COCCN)NC(C)=C(C(=O)OC)C1c1ccccc1Cl` (centres unmarked) gave a viability of 96.5%.
The viability of `C[N+]1(C)CCCC(OC(=O)C(O)(c2ccccc2)c2ccccc2)C1` (centres unmarked) is reported as 102%.
